{"data": "Assay results pooled from the literature", "note": "Lines come from different studies, so protocols differ. Numbers after ± are the reported error."}
{"Structure (SMILES)": "CC[C@H](C)[C@H](NC(=O)[C@H](CCCCN)NC(=O)[C@@H](NC(=O)[C@H](CC(N)=O)NC(=O)[C@H](CCCNC(=N)N)NC(=O)[C@H](CCCNC(=N)N)NC(=O)[C@H](CC(N)=O)NC(=O)[C@H](CCCNC(=N)N)NC(=O)[C@H](CCCNC(=N)N)NC(=O)[C@@H](NC(=O)[C@H](CO)NC(=O)[C@@H](NC(=O)[C@H](CS)NC(=O)[C@H](CCCCN)NC(=O)[C@@H](N)CCCNC(=N)N)[C@@H](C)CC)C(C)C)[C@@H](C)CC)C(=O)N[C@@H](CS)C(=O)N[C@@H](CC(N)=O)C(=O)O", "assay": "LC-MS", "system": "PBS", "setting": "0.1 mg/mL", "endpoint": "single disulfide form", "value": "98%"}
{"Structure (SMILES)": "CC[C@H](C)[C@H](NC(=O)[C@H](Cc1ccccc1)NC(=O)[C@H](CCC(=O)O)NC(=O)[C@H](CCCCNC(=O)COCCOCCNC(=O)COCCOCCNC(=O)CC[C@H](NC(=O)CCCCCCCCCCCCCCCCC(=O)O)C(=O)O)NC(=O)[C@H](C)NC(=O)[C@H](C)NC(=O)[C@H](CCC(N)=O)NC(=O)CNC(=O)[C@H](CCC(=O)O)NC(=O)[C@H](CC(C)C)NC(=O)[C@H](Cc1ccc(O)cc1)NC(=O)[C@H](CO)NC(=O)[C@H](CO)NC(=O)[C@@H](NC(=O)[C@H](CC(=O)O)NC(=O)[C@H](CO)NC(=O)[C@@H](NC(=O)[C@H](Cc1ccccc1)NC(=O)[C@@H](NC(=O)CNC(=O)[C@H](CCC(=O)O)NC(=O)C(C)(C)NC(=O)[C@@H](N)Cc1cnc[nH]1)[C@@H](C)O)[C@@H](C)O)C(C)C)C(=O)N[C@@H](C)C(=O)N[C@@H](Cc1c[nH]c2ccccc12)C(=O)N[C@@H](CC(C)C)C(=O)N[C@H](C(=O)N[C@@H](CCCNC(=N)N)C(=O)NCC(=O)N[C@@H](CCCNC(=N)N)C(=O)NCC(=O)O)C(C)C", "system": "healthy Caucasian subjects, plasma", "setting": "subcutaneous, steady state, once weekly", "scale": "relative to: 1.0 mg over 0.5 mg", "endpoint": "AUC(0-168 h) ratio", "value": 2.22}
{"Structure (SMILES)": "Oc1ccc2c3c(cnc2c1)-c1ccc(C(F)(F)F)cc1O[C@@H]3c1ccc(OCCN2CC(CF)C2)cc1", "system": "human, healthy female", "setting": "intravenous, 45 µg, added: oral 400 mg tablets", "endpoint": "plasma radioactivity half-life", "value": "74.5 h"}
{"Structure (SMILES)": "COc1cc2ncnc(Nc3ccc(F)c(Cl)c3)c2cc1OCCCN1CCOCC1", "assay": "mitochondrial swelling", "system": "BALB/cByJ female mouse liver mitochondria", "setting": "30 min, added: succinate + rotenone", "scale": "relative to: CaCl2 maximal swelling", "endpoint": "EC20", "value": "63.6 µM"}
{"Structure (SMILES)": "O=C1N=C(N2CCOCC2)CN1c1ccc(Cl)cc1", "system": "male beagle dog, plasma", "setting": "oral, 30 mg/kg, fasted", "endpoint": "half-life", "value": "1.48 h"}
{"Structure (SMILES)": "CCCC[C@H](NC(C)=O)C(=O)N[C@H]1CCC(=O)NC[C@@H](C(=O)N[C@@H](Cc2c[nH]c3ccccc23)C(N)=O)NC(=O)[C@H](CCCNC(=N)N)NC(=O)[C@@H](Cc2ccccc2)NC(=O)[C@H](Cc2c[nH]cn2)NC1=O", "system": "beagle dog, male, plasma", "setting": "subcutaneous, 40.0 mg/kg daily, day 14", "endpoint": "Tmax", "value": "0.5 h"}
{"Structure (SMILES)": "NCCCC[C@@H]1NC(=O)[C@@H](Cc2c[nH]c3ccccc23)NC(=O)[C@H](c2ccccc2)NC(=O)[C@@H]2C[C@@H](OC(=O)NCCN)CN2C(=O)[C@H](Cc2ccccc2)NC(=O)[C@H](Cc2ccc(OCc3ccccc3)cc2)NC1=O", "assay": "radioimmunoassay", "system": "healthy human male volunteers, plasma", "setting": "subcutaneous, 30 µg", "endpoint": "alpha half-life", "value": "2.2 ± 0.8 h"}
{"Structure (SMILES)": "Cn1c(-c2ccc(C(N)=O)cc2F)nnc1C(C)(C)Oc1c(F)cc(Cl)cc1F", "system": "young non-Japanese humans, plasma", "setting": "oral, 2 mg, day 1, single dose", "endpoint": "median Tmax", "value": "1 h"}
{"Structure (SMILES)": "CC[C@H]1OC(=O)[C@H](C)[C@@H](O[C@H]2C[C@@](C)(OC)[C@@H](O)[C@H](C)O2)[C@H](C)[C@@H](O[C@@H]2O[C@H](C)C[C@H](N(C)C)[C@H]2O)[C@](C)(O)C[C@@H](C)/C(=N\\OCOCCOC)[C@H](C)[C@@H](O)[C@]1(C)O", "assay": "cytochrome c release, ELISA", "system": "BALB/cByJ female mouse liver mitochondria", "setting": "30 min", "scale": "relative to: alamethicin maximal release", "endpoint": "EC20", "value": "> 400 µM"}
{"Structure (SMILES)": "CCOc1ccc2c(c1)C(C)=CC(C)(C)N2", "assay": "LC-MS/MS", "system": "laying hens, liver", "setting": "oral, 50 mg/kg feed, 56 days, after glucuronidase", "endpoint": "residue concentration", "value": "96.2 ± 50.6 ng/g"}
{"Structure (SMILES)": "C[C@@]12C[C@@]3(O)O[C@@H](O1)[C@]1(COC(=O)c4ccccc4)[C@H]3C[C@@]12O[C@@H]1O[C@H](CO)[C@@H](O)[C@H](O)[C@H]1O", "system": "rat plasma QC samples", "setting": "750 ng/mL, 45 days, -80 °C, long-term stability, middle QC", "endpoint": "accuracy", "value": "95.2 % nominal"}
{"Structure (SMILES)": "CC(=O)[C@H]1CC[C@H]2[C@@H]3CCC4=CC(=O)CC[C@]4(C)[C@H]3CC[C@]12C", "assay": "in situ brain perfusion", "system": "rat", "setting": "no efflux inhibition", "endpoint": "log intrinsic permeability", "value": -3.74}
{"Structure (SMILES)": "O=C(Cc1cccc(OC(F)(F)F)c1)Nc1ccc(CCCCc2nnc(NC(=O)Cc3ccccn3)s2)nn1", "assay": "non-compartmental analysis", "system": "human", "setting": "oral, 1000 mg twice daily, fed, steady state, cycle 1 day 15", "endpoint": "AUC(0-8h)", "value": "5070 ng·h/mL"}
{"Structure (SMILES)": "NCCCn1c2c(c3ccc(N)cc3c1=O)C(=O)c1ccccc1-2", "system": "Sprague-Dawley rat female, serum", "setting": "oral, 40 mg/kg, 3 h", "endpoint": "serum concentration", "value": "~830 ng/mL"}
{"Structure (SMILES)": "CC(C)(S)[C@@H](N)C(=O)O", "assay": "mitochondrial swelling", "system": "BALB/cByJ female mouse liver mitochondria", "setting": "30 min, added: succinate + rotenone", "scale": "relative to: CaCl2 maximal swelling", "endpoint": "EC20", "value": "> 400 µM"}
{"Structure (SMILES)": "CC[C@H](C)[C@H](NC(=O)[C@H](Cc1ccc(O)cc1)NC(=O)[C@@H](NC(=O)[C@H](CCCNC(=N)N)NC(=O)[C@@H](N)CC(=O)O)C(C)C)C(=O)N[C@@H](Cc1cnc[nH]1)C(=O)N1CCC[C@H]1C(=O)N[C@@H](Cc1ccccc1)C(=O)O", "assay": "HPLC", "system": "NRK-52E nuclear extract", "setting": "0.5 nM, 120 min, pH 7.4, 37 °C", "endpoint": "intact peptide", "value": "> 70%"}
{"note": "Some of these lines once more:"}
{"Structure (SMILES)": "CC(=O)[C@H]1CC[C@H]2[C@@H]3CCC4=CC(=O)CC[C@]4(C)[C@H]3CC[C@]12C", "assay": "in situ brain perfusion", "system": "rat", "setting": "no efflux inhibition", "endpoint": "log intrinsic permeability", "value": -3.74}
{"Structure (SMILES)": "NCCCn1c2c(c3ccc(N)cc3c1=O)C(=O)c1ccccc1-2", "system": "Sprague-Dawley rat female, serum", "setting": "oral, 40 mg/kg, 3 h", "endpoint": "serum concentration", "value": "~830 ng/mL"}
{"Structure (SMILES)": "CC[C@H]1OC(=O)[C@H](C)[C@@H](O[C@H]2C[C@@](C)(OC)[C@@H](O)[C@H](C)O2)[C@H](C)[C@@H](O[C@@H]2O[C@H](C)C[C@H](N(C)C)[C@H]2O)[C@](C)(O)C[C@@H](C)/C(=N\\OCOCCOC)[C@H](C)[C@@H](O)[C@]1(C)O", "assay": "cytochrome c release, ELISA", "system": "BALB/cByJ female mouse liver mitochondria", "setting": "30 min", "scale": "relative to: alamethicin maximal release", "endpoint": "EC20", "value": "> 400 µM"}
